Assay results pooled from the literature.
Each line is one published result; not all experiments were run side by side. Several values in a cell are separate wells, animals, samples, runs or records. ± marks the error that the study gave.
Methyl-accepting chemotaxis protein McpA ligand-binding domain: Methyl-accepting chemotaxis protein McpA, ligand-binding domain (Bacillus velezensis, UniProt A7Z835)
SCRIB PDZ3 domain: Protein scribble homolog, PDZ3 domain (SCRIB, Homo sapiens, UniProt Q14160)
Chain of UniProt Q14160 (whole entry, looked up): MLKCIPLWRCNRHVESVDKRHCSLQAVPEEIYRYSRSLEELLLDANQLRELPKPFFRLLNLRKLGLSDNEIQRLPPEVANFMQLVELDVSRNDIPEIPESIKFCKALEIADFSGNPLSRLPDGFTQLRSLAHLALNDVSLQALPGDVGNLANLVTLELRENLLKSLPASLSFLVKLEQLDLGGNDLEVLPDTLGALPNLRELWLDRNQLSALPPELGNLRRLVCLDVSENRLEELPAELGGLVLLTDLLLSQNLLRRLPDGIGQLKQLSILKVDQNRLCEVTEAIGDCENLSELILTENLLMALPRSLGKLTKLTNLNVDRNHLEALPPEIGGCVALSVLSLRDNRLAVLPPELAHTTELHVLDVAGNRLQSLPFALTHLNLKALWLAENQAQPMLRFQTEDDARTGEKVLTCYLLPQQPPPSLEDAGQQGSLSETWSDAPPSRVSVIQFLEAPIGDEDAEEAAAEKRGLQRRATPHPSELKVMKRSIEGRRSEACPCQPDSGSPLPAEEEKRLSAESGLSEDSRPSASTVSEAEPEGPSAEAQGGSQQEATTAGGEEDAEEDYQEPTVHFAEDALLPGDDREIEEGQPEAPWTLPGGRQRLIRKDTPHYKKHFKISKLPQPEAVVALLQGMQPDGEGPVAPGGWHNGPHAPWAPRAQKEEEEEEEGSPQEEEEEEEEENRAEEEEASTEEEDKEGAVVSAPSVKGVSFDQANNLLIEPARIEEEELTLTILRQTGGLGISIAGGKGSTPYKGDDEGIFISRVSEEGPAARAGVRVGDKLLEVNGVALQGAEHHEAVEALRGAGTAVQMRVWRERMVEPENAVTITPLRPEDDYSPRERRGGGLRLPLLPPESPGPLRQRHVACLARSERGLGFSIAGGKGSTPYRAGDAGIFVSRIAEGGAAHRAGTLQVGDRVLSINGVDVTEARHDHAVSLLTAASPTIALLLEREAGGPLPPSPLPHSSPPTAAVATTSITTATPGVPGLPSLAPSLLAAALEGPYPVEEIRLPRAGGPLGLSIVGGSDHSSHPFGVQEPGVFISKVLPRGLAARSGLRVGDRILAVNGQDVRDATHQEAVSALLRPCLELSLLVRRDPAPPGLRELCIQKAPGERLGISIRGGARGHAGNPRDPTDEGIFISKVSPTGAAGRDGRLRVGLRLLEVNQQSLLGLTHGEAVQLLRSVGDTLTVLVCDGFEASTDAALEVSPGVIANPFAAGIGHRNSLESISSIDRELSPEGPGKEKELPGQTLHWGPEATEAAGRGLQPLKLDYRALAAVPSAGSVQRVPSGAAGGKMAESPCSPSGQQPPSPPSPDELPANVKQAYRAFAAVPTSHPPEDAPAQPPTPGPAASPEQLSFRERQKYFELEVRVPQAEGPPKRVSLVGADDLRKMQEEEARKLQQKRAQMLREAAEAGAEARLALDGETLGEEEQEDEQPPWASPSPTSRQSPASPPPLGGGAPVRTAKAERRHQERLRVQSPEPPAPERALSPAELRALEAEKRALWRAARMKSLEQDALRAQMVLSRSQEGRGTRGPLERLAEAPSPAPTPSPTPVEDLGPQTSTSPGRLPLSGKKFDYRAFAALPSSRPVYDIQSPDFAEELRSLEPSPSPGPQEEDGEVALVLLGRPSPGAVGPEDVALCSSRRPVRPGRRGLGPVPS
HDAC6 ZnF-UBD domain: Protein deacetylase HDAC6, ZnF-UBD domain (HDAC6, Homo sapiens, UniProt Q9UBN7)
Chain of UniProt Q9UBN7 (whole entry, looked up): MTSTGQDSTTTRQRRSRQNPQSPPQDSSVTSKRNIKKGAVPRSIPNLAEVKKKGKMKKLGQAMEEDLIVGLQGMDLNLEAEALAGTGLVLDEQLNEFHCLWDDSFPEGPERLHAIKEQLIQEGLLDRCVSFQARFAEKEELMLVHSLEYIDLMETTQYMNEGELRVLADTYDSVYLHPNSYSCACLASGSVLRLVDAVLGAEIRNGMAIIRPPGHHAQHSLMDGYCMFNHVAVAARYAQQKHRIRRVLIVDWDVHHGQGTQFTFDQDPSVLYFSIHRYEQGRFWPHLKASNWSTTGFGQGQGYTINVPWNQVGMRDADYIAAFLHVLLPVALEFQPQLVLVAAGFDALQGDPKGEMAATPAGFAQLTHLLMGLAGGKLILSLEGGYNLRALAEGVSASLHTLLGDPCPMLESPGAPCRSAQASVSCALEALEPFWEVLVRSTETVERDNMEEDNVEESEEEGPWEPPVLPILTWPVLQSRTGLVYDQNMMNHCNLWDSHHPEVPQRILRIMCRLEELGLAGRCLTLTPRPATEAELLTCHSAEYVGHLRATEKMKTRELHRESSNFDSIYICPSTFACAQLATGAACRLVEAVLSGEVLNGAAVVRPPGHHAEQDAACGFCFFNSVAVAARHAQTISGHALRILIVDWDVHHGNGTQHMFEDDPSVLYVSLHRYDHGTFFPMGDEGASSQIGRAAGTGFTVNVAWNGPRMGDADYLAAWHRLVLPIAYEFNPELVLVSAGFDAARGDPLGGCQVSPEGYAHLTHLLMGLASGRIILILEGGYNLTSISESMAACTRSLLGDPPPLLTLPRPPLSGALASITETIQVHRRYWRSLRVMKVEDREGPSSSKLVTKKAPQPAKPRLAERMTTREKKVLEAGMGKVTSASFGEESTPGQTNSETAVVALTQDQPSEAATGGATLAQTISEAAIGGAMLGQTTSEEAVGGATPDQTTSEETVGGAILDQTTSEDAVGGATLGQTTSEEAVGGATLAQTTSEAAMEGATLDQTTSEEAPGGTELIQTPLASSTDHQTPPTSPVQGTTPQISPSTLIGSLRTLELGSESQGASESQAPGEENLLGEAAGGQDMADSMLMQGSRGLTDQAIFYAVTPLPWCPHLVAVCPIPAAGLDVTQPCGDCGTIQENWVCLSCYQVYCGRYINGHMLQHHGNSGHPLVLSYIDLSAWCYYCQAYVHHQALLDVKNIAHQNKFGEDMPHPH
USP13 ZnF-UBD domain: Ubiquitin carboxyl-terminal hydrolase 13, ZnF-UBD domain (USP13, Homo sapiens, UniProt Q92995)
Chain of UniProt Q92995 (whole entry, looked up): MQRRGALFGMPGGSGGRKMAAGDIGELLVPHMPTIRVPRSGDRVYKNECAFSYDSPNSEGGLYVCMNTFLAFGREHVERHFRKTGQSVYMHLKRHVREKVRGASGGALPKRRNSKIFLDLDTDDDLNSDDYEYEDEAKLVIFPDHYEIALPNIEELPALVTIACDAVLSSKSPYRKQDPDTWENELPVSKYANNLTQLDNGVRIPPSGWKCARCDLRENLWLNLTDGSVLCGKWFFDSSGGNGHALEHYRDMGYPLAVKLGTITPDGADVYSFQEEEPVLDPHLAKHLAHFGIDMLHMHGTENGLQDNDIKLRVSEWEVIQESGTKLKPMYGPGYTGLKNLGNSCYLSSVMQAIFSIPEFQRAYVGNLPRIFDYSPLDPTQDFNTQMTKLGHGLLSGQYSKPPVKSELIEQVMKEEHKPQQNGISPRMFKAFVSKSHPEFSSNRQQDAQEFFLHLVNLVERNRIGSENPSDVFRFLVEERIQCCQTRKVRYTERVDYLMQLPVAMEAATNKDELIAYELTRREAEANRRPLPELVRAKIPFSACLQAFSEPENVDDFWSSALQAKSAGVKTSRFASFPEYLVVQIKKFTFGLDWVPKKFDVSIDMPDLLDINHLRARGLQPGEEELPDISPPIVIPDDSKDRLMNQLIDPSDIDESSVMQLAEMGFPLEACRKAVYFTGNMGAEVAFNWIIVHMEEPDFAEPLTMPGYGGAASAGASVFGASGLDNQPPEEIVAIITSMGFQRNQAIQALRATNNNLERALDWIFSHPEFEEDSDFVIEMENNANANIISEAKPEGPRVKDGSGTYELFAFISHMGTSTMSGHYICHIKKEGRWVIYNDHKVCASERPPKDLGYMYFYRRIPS
gsk: Guanosine-inosine kinase (gsk, Escherichia coli, UniProt P0AEW6)
Chain of UniProt P0AEW6 (whole entry, looked up): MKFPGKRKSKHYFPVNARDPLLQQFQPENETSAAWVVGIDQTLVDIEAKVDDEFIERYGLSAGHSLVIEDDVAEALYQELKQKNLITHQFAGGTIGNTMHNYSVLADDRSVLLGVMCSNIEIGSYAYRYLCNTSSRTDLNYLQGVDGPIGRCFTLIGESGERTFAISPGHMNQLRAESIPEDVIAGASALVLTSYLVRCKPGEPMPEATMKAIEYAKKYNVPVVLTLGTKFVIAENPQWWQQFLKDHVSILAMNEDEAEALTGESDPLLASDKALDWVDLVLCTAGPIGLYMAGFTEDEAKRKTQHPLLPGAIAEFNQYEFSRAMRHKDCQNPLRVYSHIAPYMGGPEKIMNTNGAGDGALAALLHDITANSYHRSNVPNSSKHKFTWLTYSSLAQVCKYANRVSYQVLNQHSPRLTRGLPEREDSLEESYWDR
NSD2 PWWP1 domain: Histone-lysine N-methyltransferase NSD2, PWWP1 domain (NSD2, Homo sapiens, UniProt O96028)
SMARCA2: SWI/SNF-related matrix-associated actin-dependent regulator of chromatin subfamily A member 2 (SMARCA2, Homo sapiens, UniProt P51531)
LYZ: Lysozyme C (LYZ, Gallus gallus, UniProt P00698)
Chain of UniProt Q16774 (whole entry, unmodified, looked up): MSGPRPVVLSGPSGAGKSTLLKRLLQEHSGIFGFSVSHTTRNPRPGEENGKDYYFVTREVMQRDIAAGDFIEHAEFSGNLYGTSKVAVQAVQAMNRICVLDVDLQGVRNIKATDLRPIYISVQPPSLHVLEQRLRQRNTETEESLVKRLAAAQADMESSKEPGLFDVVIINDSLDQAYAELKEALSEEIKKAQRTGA
Chain of UniProt P00698 (whole entry, looked up): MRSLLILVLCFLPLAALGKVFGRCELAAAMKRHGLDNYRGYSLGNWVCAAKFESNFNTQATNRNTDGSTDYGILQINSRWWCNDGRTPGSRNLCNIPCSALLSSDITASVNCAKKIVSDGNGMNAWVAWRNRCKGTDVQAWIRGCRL
Chain of UniProt P54941 (whole entry, looked up): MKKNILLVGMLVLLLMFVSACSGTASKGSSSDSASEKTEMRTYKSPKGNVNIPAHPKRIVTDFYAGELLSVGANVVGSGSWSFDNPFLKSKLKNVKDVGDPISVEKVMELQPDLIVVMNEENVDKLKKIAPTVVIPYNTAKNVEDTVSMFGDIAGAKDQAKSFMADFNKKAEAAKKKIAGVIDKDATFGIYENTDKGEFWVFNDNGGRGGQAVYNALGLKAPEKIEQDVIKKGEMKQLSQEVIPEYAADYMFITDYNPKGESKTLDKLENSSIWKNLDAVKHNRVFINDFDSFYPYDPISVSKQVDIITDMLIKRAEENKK
Chain of UniProt P02754 (whole entry, looked up): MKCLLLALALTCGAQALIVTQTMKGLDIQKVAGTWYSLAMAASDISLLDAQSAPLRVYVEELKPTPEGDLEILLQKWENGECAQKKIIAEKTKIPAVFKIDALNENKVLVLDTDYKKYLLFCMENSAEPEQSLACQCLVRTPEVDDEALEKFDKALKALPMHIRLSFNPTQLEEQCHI

SMILES	target	assay	system	conditions	Kd
O=C(O)CC(O)C(=O)O (centres unmarked)	Methyl-accepting chemotaxis protein McpA ligand-binding domain	binding, biolayer interferometry		25 °C, 1:1 binding model	4.02 ± 0.24 µM
CC[C@H](C)[C@H](NC(=O)[C@H](CC(C)C)NC(=O)[C@H](Cc1ccc(OP(=O)(O)O)cc1)NC(=O)[C@H](CCC(=O)O)NC(=O)[C@H](CC(=O)O)NC(=O)[C@H](C)NC(=O)[C@H](CC(=O)O)NC(=O)[C@@H](NC(=O)[C@@H](NC(=O)[C@H](CC(=O)O)NC(=O)[C@H](CC(=O)O)NC(=O)[C@H](CCSC)NC(=O)c1ccc2c(c1)C(=O)OC21c2ccc(N(C)C)cc2Oc2cc(N(C)C)ccc21)C(C)C)C(C)C)C(=O)N1CCC[C@H]1C(=O)N[C@@H](CCC(N)=O)C(=O)N[C@@H](CCC(N)=O)C(=O)NCC(=O)N[C@@H](Cc1ccccc1)C(=O)N[C@@H](CC(=O)O)C(=O)O	SH2 domain-containing adapter protein B, SH2 domain (SHB, Homo sapiens, UniProt Q15464)	binding			1.99 µM
CC[C@H](C)[C@H](NC(=O)[C@H](CCCNC(=N)N)NC(=O)[C@H](CCCCN)NC(=O)[C@@H]1CCCN1C(=O)[C@@H](N)CO)C(=O)N[C@@H](C)C(=O)O	N-terminal Xaa-Pro-Lys N-methyltransferase 1 (Homo sapiens, UniProt Q9BV86, D177A)	ITC		25 °C, together with: peptide	32 µM
[N-]=[N+]=NCC1OC(OC2C(N)CC(N)C(OC3OC(CN)C(O)C(O)C3O)C2O)C(O)C(N)C1O (centres unmarked)	SCA3 RNA, 5′CAG/3′GAC repeats	RNA binding, fluorescence titration		1 h, room temperature, 12 repeat copies	> 5 µM
C=CC(=O)N1CCN(c2nc(OC[C@@H]3CCCN3C)nc3c(F)c(-c4nc(N)cc(C)c4C(F)(F)F)c(Cl)cc23)[C@@H](C)C1	GTPase KRas, GDP-bound (KRAS, Homo sapiens, UniProt P01116, A146T)	binding, surface plasmon resonance			1.04 ± 0.086 µM
Cc1cc2nc3c(=O)[nH]c(=O)nc-3n(C[C@H](O)[C@H](O)[C@H](O)COP(=O)(O)OP(=O)(O)OC[C@H]3O[C@@H](n4cnc5c(N)ncnc54)[C@H](O)[C@@H]3O)c2cc1C	Latent-transforming growth factor beta-binding protein 1 (LTBP1, Homo sapiens, UniProt Q14766)	binding, MS pulldown competition	SW-620 cell lysate		62 µM
CC[C@H](C)[C@H](NC(=O)[C@@H](NC(=O)[C@H](CCC(=O)O)NC(=O)[C@H](CO)NC(=O)[C@@H]1CCCN1C(=O)[C@H](CCC(N)=O)NC(=O)[C@H](C)NC(=O)[C@H](CO)NC(=O)[C@@H](N)CO)[C@@H](C)O)C(=O)N[C@@H](CC(C)C)C(=O)O	SCRIB PDZ3 domain	binding, fluorescence polarization	solution	Scribble PDZ3 domain	18.3 µM
N#Cc1c2n(c3c(=O)n(CC(=O)O)cnc13)CCCC2	HDAC6 ZnF-UBD domain				105 µM
Cc1cc(Nc2cc3ncccc3c(N[C@@H]3C[C@H]4CC[C@@H](C3)N4CCC#N)n2)n[nH]1	PAK4 (Homo sapiens, UniProt O96013)	binding, KINOMEscan			0.17 µM
C[C@H](O)[C@@H](O)[C@@H](O)[C@H](O)C=O	Methyl-accepting chemotaxis protein McpA ligand-binding domain	binding, biolayer interferometry		25 °C, 1:1 binding model	63.4 ± 6.42 µM
O=C(O)COc1cnc2ccccc2n1	USP13 ZnF-UBD domain				> 1000 µM
O=C(O)CCO	Methyl-accepting chemotaxis protein McpA ligand-binding domain	binding, biolayer interferometry		25 °C, 1:1 binding model	58.5 ± 6.41 µM
NC(=O)[C@H]1CCCN1C(=O)CCC(=O)O	HDAC6 ZnF-UBD domain				565 µM
C[N+](C)(C)Cc1cccc(N=Nc2cccc(C[N+](C)(C)C)c2)c1	muscarinic receptor, Rana temporaria	antagonist, radioligand displacement	ventricle homogenate	cis isomer, from mixtures, together with: [3H]N-methylscopolamine	15 to 20 µM
O=C(O)CCn1c(=O)oc2ccccc21	USP13 ZnF-UBD domain				> 1000 µM
C#Cc1c(F)ccc2cc(O)cc(-c3ncc4c(N5CC6CCC(C5)N6)nc(OC[C@@]56CCCN5C[C@H](F)C6)nc4c3F)c12	Ras-related protein R-Ras, GDP-bound (RRAS, Homo sapiens, UniProt P10301)	binding, surface plasmon resonance			> 30 µM
Nc1nc2c(ncn2[C@@H]2O[C@H](COP(=O)(O)OP(=O)(O)O)[C@@H](OP(=O)(O)OP(=O)(O)O)[C@H]2O)c(=O)[nH]1	gsk	isothermal titration calorimetry			0.31 µM
Nc1nc2c(ncn2[C@@H]2O[C@H](COP(=O)(O)O)[C@@H](O)[C@H]2O)c(=O)[nH]1	GUK1 (Homo sapiens, UniProt Q16774)	ITC		pH 7.5, 20 mM HEPES, together with: 150 mM NaCl	35 µM and 28 µM
CC(=O)N([O-])CCCCCNC(=O)CCC(=O)N([O-])CCCCCNC(=O)CCC(=O)N([O-])CCCCCN.[Fe+3]	Iron(3+)-hydroxamate-binding protein YxeB (yxeB, Bacillus subtilis, UniProt P54941)	binding, Trp fluorescence quenching		pH 7.4, together with: yxeB 100 nM	0.048 ± 0.03 µM
CCN(CC)Cc1ccc2cc(COC(=O)Nc3ccc(C(=O)NO)cc3)ccc2c1	Alpha-synuclein, pre-formed fibrils (SNCA, Homo sapiens, UniProt P37840)	binding, ITC	PBS	25 °C	11.6 µM
NCCCCCCCNC(=O)c1ccc(NC(=O)c2ccc(CN(C(=O)c3ccc4c(c3)OCC(=O)N4)C3CC3)cc2)cc1	NSD2 PWWP1 domain	SPR single-cycle kinetics		pH 7.4, 20 °C, 0.5% DMSO	0.041 ± 0.019 µM
O=C(O)Cc1nc2ccccc2[nH]1	USP13 ZnF-UBD domain				> 1000 µM
CCCC(CCC)C(=O)O	HDAC6 (Homo sapiens, UniProt Q9UBN7)	inhibitor, competition pulldown	SW620 and MV4-11 lysate	1 h	> 3020 µM
O=C(O)CCN1C(=O)c2ccccc2S1(=O)=O	HDAC6 ZnF-UBD domain				> 1000 µM

SMILES	target	assay	system	conditions	Kd
Nc1ncnc2c1ncn2[C@@H]1O[C@H](CO[P@](=O)(O)O[P@](=O)(O)O[P@@](=O)(O)S)[C@@H](O)[C@H]1O	GUK1 (Homo sapiens, UniProt Q16774, R148A)	binding, ITC		25 °C, together with: GMP	130 ± 10 µM
O=C(O)CCC(=O)c1ccc2c(c1)CCC(=O)N2	USP13 ZnF-UBD domain				> 1000 µM
CCCCCCCC/C=C\CCCCCCCC(=O)O	uncharacterized protein (Corynebacterium lipophiloflavum, UniProt C0XPZ5)	heme spectral shift, substrate, UV-visible spectral titration			1.64 µM
Nc1nc2c(ncn2[C@H]2C[C@H](OP(=O)(O)OP(=O)(O)O)[C@@H](COP(=O)(O)OP(=O)(O)O)O2)c(=O)[nH]1	cadA (Escherichia coli, UniProt P0A9H3)				5.3 µM
CC(C)C[C@H](NC(=O)[C@H](CO)NC(=O)[C@@H](NC(=O)[C@H](CC(=O)O)NC(=O)[C@@H](NC(=O)[C@H](CC(C)C)NC(=O)[C@H](CCC(N)=O)NC(=O)CNC(=O)[C@@H]1CCCN1C(=O)[C@@H](N)CCC(N)=O)C(C)C)[C@@H](C)O)C(=O)O	SCRIB PDZ3 domain	binding, fluorescence polarization	solution	Scribble PDZ3 domain	28.2 µM
Nc1ncnc2c1ncn2[C@@H]1O[C@H](COP(=O)(O)OP(=O)(O)OC[C@H]2OC(O)[C@H](O)[C@@H]2O)[C@@H](O)[C@H]1O (some centres unmarked)	Zinc finger protein 721 (ZNF721, Homo sapiens, UniProt Q8TF20)				4.07 µM
NCCCCCC(=O)N1CCc2cc(NC(=O)c3ccc(CN(C(=O)c4ccc5c(c4)OCC(=O)N5)C4CC4)cc3)ccc2C1	NSD2 PWWP1 domain	SPR single-cycle kinetics		pH 7.4, 20 °C, 0.5% DMSO	0.076 ± 0.004 µM
Nc1nc2c(ncn2[C@@H]2O[C@H](COP(=O)(O)OP(=O)(O)O)[C@@H](OP(=O)(O)OP(=O)(O)O)[C@H]2O)c(=O)[nH]1	gsk	binding, ITC sequential two-site fit		second weak site	14 ± 2 µM
CC1=C(/C=C/C(C)=C/C=C/C(C)=C/C=C/C=C(C)/C=C/C=C(C)/C=C/C2=C(C)CCCC2(C)C)C(C)(C)CCC1	Beta-lactoglobulin (LGB, Bos taurus, UniProt P02754)	binding, fluorescence quenching	PBS	30 min, 303 K	0.0153 µM
O=C(O)/C=C/C(=O)O	Methyl-accepting chemotaxis protein McpA ligand-binding domain	binding, biolayer interferometry		25 °C, 1:1 binding model	22.2 ± 1.32 µM
O=C(O)CCc1nc2ncccn2n1	USP13 ZnF-UBD domain				118 µM
O=C1OC(C(O)CO)C(=O)C1=O (centres unmarked)	Methyl-accepting chemotaxis protein McpA ligand-binding domain	binding, biolayer interferometry		25 °C, 1:1 binding model	32.9 ± 3.16 µM
C[C@H](O)C(=O)O	L166H-Q481H zinc sensor protein	binding, fluorescence lifetime		no Zn2+	513 ± 83 µM
CC(C)C[C@H](NC(=O)[C@H](Cc1ccc(O)cc1)NC(=O)[C@H](CO)NC(=O)CNC(=O)[C@H](CO)NC(=O)[C@@H](N)Cc1c[nH]cn1)C(=O)N[C@H](C(=O)N[C@H](C(=O)N[C@@H](CO)C(=O)N[C@H](C(=O)O)C(C)C)[C@@H](C)O)C(C)C	SCRIB PDZ3 domain	binding, fluorescence polarization	solution	Scribble PDZ3 domain	6.7 µM
Cn1cc(-c2cc(-c3ccccc3O)nnc2N)cn1	SMARCA2	binding, NanoBRET tracer displacement	permeabilized HEK293		0.098 ± 0.019 µM
N[C@@H](Cc1c[nH]c2ccccc12)C(=O)O	Transcription attenuation protein MtrB (mtrB, Geobacillus stearothermophilus, UniProt Q9X6J6)	isothermal titration calorimetry		25 °C, one-site model	0.19 ± 0.02 µM
O=[N+]([O-])c1cc(C(F)(F)F)ccc1NCc1ccsc1	Endothelial PAS domain-containing protein 1, PAS-B domain (EPAS1, Homo sapiens, UniProt Q99814, N288Q)	ITC, reverse mode		25 °C	0.75 ± 0.08 µM
NCC1CN(c2cc(N3C4CCC3CN(c3cc(-c5ccccc5O)nnc3N)C4)ccn2)C1	SMARCA2	binding, NanoBRET tracer displacement	permeabilized HEK293		0.0051 ± 0.0013 µM
Nc1ncnc2c1ncn2[C@@H]1O[C@H](COP(=O)(O)OP(=O)(O)O)[C@@H](O)[C@H]1O	GUK1 (Homo sapiens, UniProt Q16774, T19A)	binding, ITC		25 °C	> 200 µM
CC(=O)N[C@H]1[C@H](O[C@H]2[C@H](O)[C@@H](NC(C)=O)C(O)O[C@@H]2CO)O[C@H](CO)[C@@H](O[C@@H]2O[C@H](CO)[C@@H](O)[C@H](O)[C@H]2NC(C)=O)[C@@H]1O (some centres unmarked)	LYZ	binding, native nano-ESI MS		pH 7.4, emitter tip 850 nm	7.8 ± 0.2 µM
CC(=O)N[C@H]1[C@H](O[C@H]2[C@H](O)[C@@H](NC(C)=O)C(O)O[C@@H]2CO)O[C@H](CO)[C@@H](O[C@@H]2O[C@H](CO)[C@@H](O)[C@H](O)[C@H]2NC(C)=O)[C@@H]1O (some centres unmarked)	LYZ	surface sampling native MS		10-fold dilution	17.2 ± 2.3 µM
F[C@@H]1CCN(c2ccc(-c3ccc4sc(-c5cccnc5)cc4n3)cn2)C1	Alpha-synuclein, aggregates (SNCA, Homo sapiens, UniProt P37840)	binding, [3H]compound homologous binding	Parkinson's disease brain homogenate		0.00185 µM
CC(C)C[C@H](NC(=O)[C@H](CO)NC(=O)[C@@H](NC(=O)[C@H](CCC(=O)O)NC(=O)[C@H](CC(N)=O)NC(=O)[C@@H](NC(=O)[C@H](Cc1c[nH]cn1)NC(=O)[C@@H]1CCCN1C(=O)[C@H](CCCNC(=N)N)NC(=O)[C@@H](N)CO)[C@@H](C)O)[C@@H](C)O)C(=O)O	SCRIB PDZ3 domain	binding, fluorescence polarization	solution	Scribble PDZ3 domain	2.4 µM

For quick reference, copied from above:
SMILES	target	assay	system	conditions	Kd
CC[C@H](C)[C@H](NC(=O)[C@H](CCCNC(=N)N)NC(=O)[C@H](CCCCN)NC(=O)[C@@H]1CCCN1C(=O)[C@@H](N)CO)C(=O)N[C@@H](C)C(=O)O	N-terminal Xaa-Pro-Lys N-methyltransferase 1 (Homo sapiens, UniProt Q9BV86, D177A)	ITC		25 °C, together with: peptide	32 µM
CCCC(CCC)C(=O)O	HDAC6 (Homo sapiens, UniProt Q9UBN7)	inhibitor, competition pulldown	SW620 and MV4-11 lysate	1 h	> 3020 µM
N[C@@H](Cc1c[nH]c2ccccc12)C(=O)O	Transcription attenuation protein MtrB (mtrB, Geobacillus stearothermophilus, UniProt Q9X6J6)	isothermal titration calorimetry		25 °C, one-site model	0.19 ± 0.02 µM
CC(C)C[C@H](NC(=O)[C@H](Cc1ccc(O)cc1)NC(=O)[C@H](CO)NC(=O)CNC(=O)[C@H](CO)NC(=O)[C@@H](N)Cc1c[nH]cn1)C(=O)N[C@H](C(=O)N[C@H](C(=O)N[C@@H](CO)C(=O)N[C@H](C(=O)O)C(C)C)[C@@H](C)O)C(C)C	SCRIB PDZ3 domain	binding, fluorescence polarization	solution	Scribble PDZ3 domain	6.7 µM
O=C1OC(C(O)CO)C(=O)C1=O (centres unmarked)	Methyl-accepting chemotaxis protein McpA ligand-binding domain	binding, biolayer interferometry		25 °C, 1:1 binding model	32.9 ± 3.16 µM
O=C(O)CC(O)C(=O)O (centres unmarked)	Methyl-accepting chemotaxis protein McpA ligand-binding domain	binding, biolayer interferometry		25 °C, 1:1 binding model	4.02 ± 0.24 µM
